Published values collected from several papers.
Numbered parts are unrelated; each lists some results of a single study.
Sequence of UniProt P50750 (whole entry, looked up): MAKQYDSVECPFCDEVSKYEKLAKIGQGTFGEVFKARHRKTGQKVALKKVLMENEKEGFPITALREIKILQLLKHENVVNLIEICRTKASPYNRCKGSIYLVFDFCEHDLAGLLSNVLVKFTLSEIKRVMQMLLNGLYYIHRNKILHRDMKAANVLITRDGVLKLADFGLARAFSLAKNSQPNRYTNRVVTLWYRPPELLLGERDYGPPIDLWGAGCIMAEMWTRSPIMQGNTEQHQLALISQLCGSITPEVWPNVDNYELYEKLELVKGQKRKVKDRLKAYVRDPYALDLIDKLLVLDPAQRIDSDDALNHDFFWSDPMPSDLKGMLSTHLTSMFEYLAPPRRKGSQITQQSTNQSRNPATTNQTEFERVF
Sequence of UniProt P08912 (whole entry, looked up): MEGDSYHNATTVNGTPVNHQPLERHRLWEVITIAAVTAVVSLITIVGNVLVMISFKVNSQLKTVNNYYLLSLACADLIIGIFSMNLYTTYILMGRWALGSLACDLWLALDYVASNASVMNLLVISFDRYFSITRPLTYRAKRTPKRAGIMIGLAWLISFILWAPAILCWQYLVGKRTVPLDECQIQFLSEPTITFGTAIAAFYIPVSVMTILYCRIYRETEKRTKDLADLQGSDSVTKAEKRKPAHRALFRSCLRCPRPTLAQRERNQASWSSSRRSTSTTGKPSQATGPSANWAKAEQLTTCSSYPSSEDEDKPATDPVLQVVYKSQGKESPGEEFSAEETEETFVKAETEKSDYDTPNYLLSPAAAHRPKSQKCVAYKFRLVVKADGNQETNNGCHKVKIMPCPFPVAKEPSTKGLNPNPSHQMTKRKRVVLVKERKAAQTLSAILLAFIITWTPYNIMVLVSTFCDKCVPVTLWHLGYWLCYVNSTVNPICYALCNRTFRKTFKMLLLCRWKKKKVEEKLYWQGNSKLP
Sequence of UniProt P14416 (whole entry, looked up): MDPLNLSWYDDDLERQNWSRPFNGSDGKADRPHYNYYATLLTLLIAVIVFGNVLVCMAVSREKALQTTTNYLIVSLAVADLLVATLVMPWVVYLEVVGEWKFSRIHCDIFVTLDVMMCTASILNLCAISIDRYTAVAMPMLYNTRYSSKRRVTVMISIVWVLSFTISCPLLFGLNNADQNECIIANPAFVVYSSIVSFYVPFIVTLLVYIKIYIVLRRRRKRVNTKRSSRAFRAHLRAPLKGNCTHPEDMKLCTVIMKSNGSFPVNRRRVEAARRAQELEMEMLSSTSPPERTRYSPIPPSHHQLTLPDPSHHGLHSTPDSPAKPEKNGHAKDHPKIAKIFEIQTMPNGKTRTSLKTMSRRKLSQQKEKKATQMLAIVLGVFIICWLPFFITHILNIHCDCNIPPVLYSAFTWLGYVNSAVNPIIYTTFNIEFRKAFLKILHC
Sequence of UniProt Q7KZI7 (whole entry, looked up): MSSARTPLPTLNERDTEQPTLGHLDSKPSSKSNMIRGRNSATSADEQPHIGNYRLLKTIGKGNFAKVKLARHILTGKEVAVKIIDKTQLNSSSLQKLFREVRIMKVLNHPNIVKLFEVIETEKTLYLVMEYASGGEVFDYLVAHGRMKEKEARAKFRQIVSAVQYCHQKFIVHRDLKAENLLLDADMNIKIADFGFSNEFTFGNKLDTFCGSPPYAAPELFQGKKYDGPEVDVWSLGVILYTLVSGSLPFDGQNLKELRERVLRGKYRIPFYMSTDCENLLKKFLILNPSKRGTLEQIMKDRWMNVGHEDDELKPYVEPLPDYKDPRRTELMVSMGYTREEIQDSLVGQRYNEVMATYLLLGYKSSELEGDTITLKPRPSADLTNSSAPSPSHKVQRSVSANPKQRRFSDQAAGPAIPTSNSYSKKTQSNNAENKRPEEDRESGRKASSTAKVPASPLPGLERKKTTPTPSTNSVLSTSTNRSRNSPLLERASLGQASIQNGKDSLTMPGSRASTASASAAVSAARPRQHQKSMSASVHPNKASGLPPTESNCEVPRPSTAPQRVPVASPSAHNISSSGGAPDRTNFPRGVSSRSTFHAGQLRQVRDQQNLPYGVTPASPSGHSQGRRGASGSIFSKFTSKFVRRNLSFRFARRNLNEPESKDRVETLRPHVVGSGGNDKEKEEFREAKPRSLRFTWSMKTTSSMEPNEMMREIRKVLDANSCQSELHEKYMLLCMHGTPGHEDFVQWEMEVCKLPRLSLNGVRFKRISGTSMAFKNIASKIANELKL
Sequence of UniProt O75676 (whole entry, looked up): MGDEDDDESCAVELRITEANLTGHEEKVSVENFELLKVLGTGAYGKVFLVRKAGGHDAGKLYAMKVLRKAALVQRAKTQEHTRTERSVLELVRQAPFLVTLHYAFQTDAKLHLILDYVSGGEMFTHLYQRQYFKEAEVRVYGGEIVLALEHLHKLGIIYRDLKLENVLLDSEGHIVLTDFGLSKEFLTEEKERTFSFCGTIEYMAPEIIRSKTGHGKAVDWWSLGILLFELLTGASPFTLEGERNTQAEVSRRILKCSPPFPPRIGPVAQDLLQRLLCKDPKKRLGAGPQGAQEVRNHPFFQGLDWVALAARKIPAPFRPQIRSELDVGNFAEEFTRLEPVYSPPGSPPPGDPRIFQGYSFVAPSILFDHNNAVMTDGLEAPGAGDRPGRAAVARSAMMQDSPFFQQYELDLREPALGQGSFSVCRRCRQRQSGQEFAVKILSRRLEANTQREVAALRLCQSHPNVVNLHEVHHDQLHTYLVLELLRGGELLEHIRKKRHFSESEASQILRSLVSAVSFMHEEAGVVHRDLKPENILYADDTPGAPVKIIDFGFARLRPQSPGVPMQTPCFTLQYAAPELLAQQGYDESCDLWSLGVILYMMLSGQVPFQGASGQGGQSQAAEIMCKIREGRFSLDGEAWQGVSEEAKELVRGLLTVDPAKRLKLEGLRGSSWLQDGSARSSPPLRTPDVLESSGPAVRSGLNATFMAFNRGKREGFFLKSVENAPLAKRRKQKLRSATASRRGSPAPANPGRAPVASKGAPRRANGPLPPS
Sequence of UniProt P18825 (whole entry, looked up): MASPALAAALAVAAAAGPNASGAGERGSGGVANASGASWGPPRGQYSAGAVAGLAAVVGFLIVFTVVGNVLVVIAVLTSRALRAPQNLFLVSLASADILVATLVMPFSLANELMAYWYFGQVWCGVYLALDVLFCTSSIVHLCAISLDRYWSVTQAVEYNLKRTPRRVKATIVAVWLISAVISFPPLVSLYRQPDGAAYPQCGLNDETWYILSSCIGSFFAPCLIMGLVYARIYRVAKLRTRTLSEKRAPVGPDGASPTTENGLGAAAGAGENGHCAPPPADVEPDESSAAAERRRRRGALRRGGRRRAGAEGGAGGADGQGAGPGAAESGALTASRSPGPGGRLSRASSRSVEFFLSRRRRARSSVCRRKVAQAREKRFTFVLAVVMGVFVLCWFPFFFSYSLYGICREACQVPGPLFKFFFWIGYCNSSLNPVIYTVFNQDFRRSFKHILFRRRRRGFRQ
Sequence of UniProt P28482 (whole entry, looked up): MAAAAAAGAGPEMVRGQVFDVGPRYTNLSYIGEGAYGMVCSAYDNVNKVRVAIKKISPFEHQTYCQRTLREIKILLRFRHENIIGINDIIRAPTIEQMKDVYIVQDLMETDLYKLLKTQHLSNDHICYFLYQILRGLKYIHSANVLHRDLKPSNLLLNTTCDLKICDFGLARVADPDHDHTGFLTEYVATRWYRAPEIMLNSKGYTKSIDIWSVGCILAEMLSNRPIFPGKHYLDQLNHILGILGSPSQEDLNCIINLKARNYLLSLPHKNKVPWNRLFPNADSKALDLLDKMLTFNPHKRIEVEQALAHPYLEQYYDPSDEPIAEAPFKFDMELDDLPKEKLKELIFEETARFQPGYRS
Sequence of UniProt Q9H4B4 (whole entry, looked up): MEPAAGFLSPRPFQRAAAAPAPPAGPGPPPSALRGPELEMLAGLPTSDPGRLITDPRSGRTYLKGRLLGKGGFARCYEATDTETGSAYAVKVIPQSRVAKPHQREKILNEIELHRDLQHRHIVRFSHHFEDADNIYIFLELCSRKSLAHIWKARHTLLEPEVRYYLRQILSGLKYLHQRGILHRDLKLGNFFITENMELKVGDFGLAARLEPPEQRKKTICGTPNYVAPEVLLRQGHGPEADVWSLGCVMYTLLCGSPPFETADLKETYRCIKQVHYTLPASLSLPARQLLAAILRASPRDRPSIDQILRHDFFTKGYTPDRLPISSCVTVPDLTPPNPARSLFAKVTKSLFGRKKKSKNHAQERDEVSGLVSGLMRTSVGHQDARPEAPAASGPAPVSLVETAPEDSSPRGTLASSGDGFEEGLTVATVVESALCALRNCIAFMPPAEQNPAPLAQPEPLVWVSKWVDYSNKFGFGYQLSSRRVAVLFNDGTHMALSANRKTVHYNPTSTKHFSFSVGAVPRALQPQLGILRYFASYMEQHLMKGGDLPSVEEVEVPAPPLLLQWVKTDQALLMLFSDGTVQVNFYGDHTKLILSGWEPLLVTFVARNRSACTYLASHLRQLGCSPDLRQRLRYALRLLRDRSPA
Sequence of UniProt Q5BJF2 (whole entry, looked up): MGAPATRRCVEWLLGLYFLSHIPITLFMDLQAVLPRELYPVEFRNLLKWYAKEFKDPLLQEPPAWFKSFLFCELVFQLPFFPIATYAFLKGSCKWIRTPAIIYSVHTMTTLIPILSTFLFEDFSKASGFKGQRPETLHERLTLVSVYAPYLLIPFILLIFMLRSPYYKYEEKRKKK

Series 1
Species: mouse
Sample: microsomes or S9
Tested at: 2 µM
Time: 0.5 h
| SMILES | remaining compound |
| --- | --- |
| COc1cc(=O)n(C)cc1C(=O)N1CCc2[nH]c(=O)c(C#N)cc2C1 | 80.1% |
| C[S+]([O-])c1nc2ccc(F)cc2c(-n2ccnc2)c1-c1ccc(Cl)cc1Cl (stereo not drawn) | > 100% |
| CCCC(=O)c1c[nH]c2c(OCC)nccc2c1=O | 27% |
| NC(=O)COc1ccc(-c2nc(-c3ccccc3)no2)cc1 | 11.1% |
| Cc1nnc2c(Nc3cccc(CNC(=O)OC(C)(C)C)c3)nc3cc(C(=O)Nc4ccccc4)ccc3n12 | 92% |
| CCO[C@@H]1CCC[C@H](CC(=O)c2cccs2)[C@H]1C(=O)c1cccs1 | 0.827% |
| Cc1ccc(CCCNC(=O)c2cc(C(C)(C)C)c(O)c(C(C)(C)C)c2)cc1C | 29.9% |
| CN1CCC(C(=O)OC2CC(C)(C)Oc3ccc(Br)cc32)CC1=O (stereo not drawn) | 1.86% |
| CCC(CC)C(=O)N1CCN(S(=O)(=O)c2ccccc2)CC1 | 5.75% |

Series 2
Target: Eukaryotic initiation factor 4A-I (EIF4A1, Homo sapiens, UniProt P60842)
Sequence of UniProt P60842 (whole entry, looked up): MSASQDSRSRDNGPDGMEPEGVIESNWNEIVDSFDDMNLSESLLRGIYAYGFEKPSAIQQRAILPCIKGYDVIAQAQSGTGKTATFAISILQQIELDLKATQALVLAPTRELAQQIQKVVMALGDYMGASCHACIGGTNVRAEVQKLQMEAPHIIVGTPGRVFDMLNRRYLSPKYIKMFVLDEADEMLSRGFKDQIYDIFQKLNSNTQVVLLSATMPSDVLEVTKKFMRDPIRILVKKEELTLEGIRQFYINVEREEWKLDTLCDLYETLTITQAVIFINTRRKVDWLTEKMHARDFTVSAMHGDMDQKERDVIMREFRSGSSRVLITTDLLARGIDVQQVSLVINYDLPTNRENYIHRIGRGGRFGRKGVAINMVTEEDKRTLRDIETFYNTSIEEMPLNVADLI
Observed: RNA clamping
Technique: fluorescence polarization
Tested at: concentration not given
Setting: mean of two replicates
Together with: FAM-labelled poly r(AG)8 RNA
| SMILES | fluorescence polarization change |
| --- | --- |
| COC(=O)[C@@H]1[C@@H](c2ccccc2)[C@]2(c3ccc(OC)cc3)Oc3cc(OC)cc(OC)c3[C@@]23OC(c2cccc(OC)c2)=N[C@@]13O | 2.6 mP |
| COc1ccc([C@@]23Oc4cc(OC)cc(OC)c4[C@]2(O)C=C(C(=O)c2ccco2)[C@H]3c2ccccc2)cc1 | 33 mP |
| COc1ccc([C@@]23Oc4cc(OC)cc(OC)c4[C@]2(NCc2ccccc2)C(=O)C[C@H]3c2ccccc2)cc1 | 9.9 mP |
| COc1cc(OC)c2c(c1)O[C@@]1(c3ccc(C#N)cc3)[C@H](c3ccccc3)[C@@H](CN(C)C)[C@@H](O)[C@@]21O | 82.7 mP |
| COCCN[C@@]12c3nc(-c4ccccc4)[nH]c(=O)c3[C@@H](c3ccccc3)[C@]1(c1ccc(OC)cc1)Oc1cc(OC)cc(OC)c12 | 6.6 mP |
| COc1cc(OC)c2c(c1)O[C@@]1(c3ccc(OC)c(O)c3)[C@H](c3ccccc3)[C@@H](C(=O)c3ccco3)[C@@H](O)[C@@]21O | 9.1 mP |
| C#CCCC1(CCOc2ccc([C@@H]3[C@@H](C(=O)N(C)OC)[C@@H](O)[C@@]4(O)c5c(OC)cc(OC)cc5O[C@@]34c3ccc(OC)cc3)cc2)N=N1 | 2.1 mP |
| C#CCOc1ccc(-c2nc(OCC#C)c3c(n2)[C@@]2(O)c4c(OC)cc(OC)cc4O[C@@]2(c2ccc(OC)cc2)[C@@H]3c2ccccc2)cc1 | -6.5 mP |
| COc1ccc([C@@]23Oc4cc(OC)cc(OC)c4[C@@](O)(C2=O)[C@H](C(=O)N(C)OC)[C@H]3c2ccccc2)cc1 | 6.4 mP |
| COc1ccc([C@@]23Oc4cc(OC)cc(OC)c4[C@@]24NC(C)=N[C@@]4(O)[C@H](C(C)=O)[C@H]3c2ccccc2)cc1 | 60.7 mP |
| C#CCN[C@@]12C(=O)[C@H](C(=O)OC)[C@@H](c3ccccc3)[C@]1(c1ccc(OC)cc1)Oc1cc(OC)cc(OC)c12 | 3.9 mP |

Series 3
SMILES: O=C(c1cc2cc(O)ccc2[nH]1)c1cc2cc(O)ccc2[nH]1
Observed: enzyme activity
Action: inhibitor
Tested at: 0.5 µM
Relative to: control
| target | remaining activity [%] |
| --- | --- |
| Calcium/calmodulin-dependent protein kinase type 1B (PNCK, Homo sapiens, UniProt Q6P2M8) | 105 |
| Tyrosine-protein kinase TXK (TXK, Homo sapiens, UniProt P42681) | 74.9 |
| Mitogen-activated protein kinase 14 (MAPK14, Homo sapiens, UniProt Q16539) | 103 |
| Serine/threonine-protein kinase DCLK2 (DCLK2, Homo sapiens, UniProt Q8N568) | 88.4 |
| Serine/threonine-protein kinase MARK2 (MARK2, Homo sapiens, UniProt Q7KZI7) | 59.9 |
| Serine/threonine-protein kinase PLK3 (PLK3, Homo sapiens, UniProt Q9H4B4) | 101 |
| Dual specificity mitogen-activated protein kinase kinase 1 (MAP2K1, Homo sapiens, UniProt Q02750) | 103 |
| Mitogen-activated protein kinase 1 (MAPK1, Homo sapiens, UniProt P28482) | 113 |
| Cyclin-dependent kinase 9, with cyclin K (CDK9, Homo sapiens, UniProt P50750) | 49.5 |
| Dual specificity protein kinase CLK3 (CLK3, Homo sapiens, UniProt P49761) | 24.8 |
| RAC-beta serine/threonine-protein kinase (AKT2, Homo sapiens, UniProt P31751) | 104 |
| Ribosomal protein S6 kinase alpha-4 (RPS6KA4, Homo sapiens, UniProt O75676) | 81.3 |
| Misshapen-like kinase 1 (MINK1, Homo sapiens, UniProt Q8N4C8) | 9.87 |
| Hepatocyte growth factor receptor (MET, Homo sapiens, UniProt P08581) | 89.2 |

Series 4
Compound: FC(F)(F)c1ccc2c(c1)nc(-c1cccnc1)n2C1CC1
Observed: cell-free assay
Tested at: 10 µM
| target | inhibition |
| --- | --- |
| Beta-3 adrenergic receptor (ADRB3, Homo sapiens, UniProt P13945) | -1.88% |
| Alpha-1D adrenergic receptor (ADRA1D, Homo sapiens, UniProt P25100) | -22.1% |
| Histamine H3 receptor (HRH3, Homo sapiens, UniProt Q9Y5N1) | -17.6% |
| Alpha-2A adrenergic receptor (ADRA2A, Homo sapiens, UniProt P08913) | 6.92% |
| Histamine H2 receptor (HRH2, Homo sapiens, UniProt P25021) | 6.72% |
| Alpha-2C adrenergic receptor (ADRA2C, Homo sapiens, UniProt P18825) | 13.3% |
| Muscarinic acetylcholine receptor M5 (CHRM5, Homo sapiens, UniProt P08912) | -6.15% |
| Histamine H4 receptor (HRH4, Homo sapiens, UniProt Q9H3N8) | -9.43% |
| Sigma intracellular receptor 2 (TMEM97, Homo sapiens, UniProt Q5BJF2) | 26.5% |
| Sigma non-opioid intracellular receptor 1 (SIGMAR1, Homo sapiens, UniProt Q99720) | 16.9% |
| D(1A) dopamine receptor (DRD1, Homo sapiens, UniProt P21728) | -3.97% |
| D(2) dopamine receptor (DRD2, Homo sapiens, UniProt P14416) | -19.8% |
| Muscarinic acetylcholine receptor M2 (CHRM2, Homo sapiens, UniProt P08172) | 2.99% |
| Histamine H1 receptor (HRH1, Homo sapiens, UniProt P35367) | 9.49% |
